Measurements gathered from unrelated publications.
Every numbered part comes from another study and shows a few of its results, in no order. Positions count from the first letter of the parent shown.
UniProt P61081, sequence (whole entry, looked up): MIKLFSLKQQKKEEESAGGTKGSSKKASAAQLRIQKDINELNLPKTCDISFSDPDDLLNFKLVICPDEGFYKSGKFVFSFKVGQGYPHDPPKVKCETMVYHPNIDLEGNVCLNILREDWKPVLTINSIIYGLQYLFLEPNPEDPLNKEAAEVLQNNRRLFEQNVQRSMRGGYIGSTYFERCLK
UniProt Q969T4, sequence (whole entry, looked up): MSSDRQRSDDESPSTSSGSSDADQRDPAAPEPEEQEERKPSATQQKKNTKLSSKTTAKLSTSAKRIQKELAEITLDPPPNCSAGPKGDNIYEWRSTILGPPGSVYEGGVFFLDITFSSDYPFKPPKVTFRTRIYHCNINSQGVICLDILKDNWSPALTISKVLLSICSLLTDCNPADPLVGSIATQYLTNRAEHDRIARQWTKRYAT
UniProt Q9H832, sequence (whole entry, looked up): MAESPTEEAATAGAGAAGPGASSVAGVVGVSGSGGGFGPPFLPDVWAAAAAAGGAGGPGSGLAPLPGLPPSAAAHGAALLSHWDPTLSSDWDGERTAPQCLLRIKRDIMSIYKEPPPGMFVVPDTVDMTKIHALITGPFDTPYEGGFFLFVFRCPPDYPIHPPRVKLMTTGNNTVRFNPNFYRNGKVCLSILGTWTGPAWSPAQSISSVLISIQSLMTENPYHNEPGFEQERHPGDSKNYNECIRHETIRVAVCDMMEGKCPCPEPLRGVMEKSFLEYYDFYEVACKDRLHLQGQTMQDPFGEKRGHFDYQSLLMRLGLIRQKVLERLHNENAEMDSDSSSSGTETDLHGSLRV
UniProt P51668, sequence (whole entry, looked up): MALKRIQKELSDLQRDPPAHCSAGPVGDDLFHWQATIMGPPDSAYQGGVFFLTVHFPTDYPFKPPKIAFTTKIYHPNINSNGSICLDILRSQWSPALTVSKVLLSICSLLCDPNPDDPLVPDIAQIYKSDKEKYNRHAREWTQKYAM
UniProt Q9NPD8, sequence (whole entry, looked up): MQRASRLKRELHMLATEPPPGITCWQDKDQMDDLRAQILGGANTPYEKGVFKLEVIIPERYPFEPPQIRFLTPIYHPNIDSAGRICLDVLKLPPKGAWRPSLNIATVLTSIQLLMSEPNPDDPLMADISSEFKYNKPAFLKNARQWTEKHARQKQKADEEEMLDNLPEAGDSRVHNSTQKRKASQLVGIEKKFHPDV
UniProt O00762, sequence (whole entry, looked up): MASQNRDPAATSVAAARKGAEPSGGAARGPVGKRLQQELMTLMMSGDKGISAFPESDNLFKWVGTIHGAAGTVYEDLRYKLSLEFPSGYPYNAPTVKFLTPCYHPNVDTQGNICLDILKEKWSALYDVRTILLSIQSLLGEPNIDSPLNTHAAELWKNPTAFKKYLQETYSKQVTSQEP
UniProt Q8N2K1, sequence (whole entry, looked up): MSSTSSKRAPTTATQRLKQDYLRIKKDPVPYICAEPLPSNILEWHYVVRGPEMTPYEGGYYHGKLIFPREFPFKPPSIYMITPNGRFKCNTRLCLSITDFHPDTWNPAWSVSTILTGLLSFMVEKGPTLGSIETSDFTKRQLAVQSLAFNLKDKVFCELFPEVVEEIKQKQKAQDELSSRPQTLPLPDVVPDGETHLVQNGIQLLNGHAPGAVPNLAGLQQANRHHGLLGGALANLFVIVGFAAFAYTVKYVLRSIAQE
UniProt Q712K3, sequence (whole entry, looked up): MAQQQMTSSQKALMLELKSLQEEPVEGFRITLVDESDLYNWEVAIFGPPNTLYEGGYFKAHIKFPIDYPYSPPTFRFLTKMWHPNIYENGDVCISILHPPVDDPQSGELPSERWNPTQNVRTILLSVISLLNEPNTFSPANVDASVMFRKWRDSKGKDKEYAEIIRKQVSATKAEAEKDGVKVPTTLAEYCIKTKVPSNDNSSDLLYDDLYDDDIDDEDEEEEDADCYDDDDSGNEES
UniProt Q9C0C9, sequence (whole entry, looked up): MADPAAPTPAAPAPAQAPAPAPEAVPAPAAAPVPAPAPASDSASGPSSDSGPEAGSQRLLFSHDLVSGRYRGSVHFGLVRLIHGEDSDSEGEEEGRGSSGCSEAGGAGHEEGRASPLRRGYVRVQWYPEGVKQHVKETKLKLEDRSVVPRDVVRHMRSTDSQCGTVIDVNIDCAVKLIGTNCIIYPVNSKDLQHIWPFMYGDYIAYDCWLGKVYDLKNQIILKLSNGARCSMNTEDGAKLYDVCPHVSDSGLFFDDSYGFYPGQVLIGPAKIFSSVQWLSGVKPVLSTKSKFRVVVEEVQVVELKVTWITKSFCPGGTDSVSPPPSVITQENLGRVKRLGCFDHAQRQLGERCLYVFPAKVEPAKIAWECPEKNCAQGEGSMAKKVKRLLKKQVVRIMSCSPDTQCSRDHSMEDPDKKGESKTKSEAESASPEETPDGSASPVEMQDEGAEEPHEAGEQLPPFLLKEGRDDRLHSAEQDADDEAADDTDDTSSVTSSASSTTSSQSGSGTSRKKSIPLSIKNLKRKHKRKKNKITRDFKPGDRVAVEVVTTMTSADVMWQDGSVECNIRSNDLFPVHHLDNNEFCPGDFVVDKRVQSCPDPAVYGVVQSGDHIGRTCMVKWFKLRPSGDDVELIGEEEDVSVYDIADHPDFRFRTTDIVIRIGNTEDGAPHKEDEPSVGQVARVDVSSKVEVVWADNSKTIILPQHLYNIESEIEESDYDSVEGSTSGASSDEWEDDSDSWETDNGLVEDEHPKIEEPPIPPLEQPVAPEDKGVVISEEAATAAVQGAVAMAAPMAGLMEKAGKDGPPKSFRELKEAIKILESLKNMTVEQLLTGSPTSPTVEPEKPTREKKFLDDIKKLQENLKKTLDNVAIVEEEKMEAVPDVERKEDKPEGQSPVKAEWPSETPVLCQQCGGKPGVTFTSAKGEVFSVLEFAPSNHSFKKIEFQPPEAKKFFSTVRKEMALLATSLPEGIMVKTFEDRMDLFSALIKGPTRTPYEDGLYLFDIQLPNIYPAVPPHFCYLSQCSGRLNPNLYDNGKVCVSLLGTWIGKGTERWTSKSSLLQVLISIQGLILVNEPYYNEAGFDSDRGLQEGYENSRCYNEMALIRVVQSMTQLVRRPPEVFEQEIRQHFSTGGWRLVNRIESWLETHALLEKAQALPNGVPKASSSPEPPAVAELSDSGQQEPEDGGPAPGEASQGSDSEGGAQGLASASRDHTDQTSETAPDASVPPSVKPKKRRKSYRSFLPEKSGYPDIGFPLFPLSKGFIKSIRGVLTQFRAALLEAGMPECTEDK
UniProt Q16763, sequence (whole entry, looked up): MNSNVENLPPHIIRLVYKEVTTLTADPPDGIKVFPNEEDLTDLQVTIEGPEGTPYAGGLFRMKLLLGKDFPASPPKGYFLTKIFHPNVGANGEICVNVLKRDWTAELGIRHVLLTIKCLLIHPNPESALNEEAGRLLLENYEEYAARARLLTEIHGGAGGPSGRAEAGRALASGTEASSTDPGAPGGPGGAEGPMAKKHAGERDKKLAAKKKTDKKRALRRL
UniProt Q7Z7E8, sequence (whole entry, looked up): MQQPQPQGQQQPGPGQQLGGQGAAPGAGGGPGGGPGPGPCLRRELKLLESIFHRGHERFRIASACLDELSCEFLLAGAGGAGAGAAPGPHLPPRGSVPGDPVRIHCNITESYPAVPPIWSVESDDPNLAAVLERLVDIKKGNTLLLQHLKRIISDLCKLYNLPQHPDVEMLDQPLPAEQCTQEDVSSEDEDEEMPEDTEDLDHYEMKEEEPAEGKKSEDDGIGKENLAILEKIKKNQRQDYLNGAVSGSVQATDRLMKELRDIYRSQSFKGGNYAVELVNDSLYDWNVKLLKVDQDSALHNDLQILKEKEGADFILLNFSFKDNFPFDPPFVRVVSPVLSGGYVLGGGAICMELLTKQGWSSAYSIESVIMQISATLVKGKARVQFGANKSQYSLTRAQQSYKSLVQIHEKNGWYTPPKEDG
UniProt Q9Y385, sequence (whole entry, looked up): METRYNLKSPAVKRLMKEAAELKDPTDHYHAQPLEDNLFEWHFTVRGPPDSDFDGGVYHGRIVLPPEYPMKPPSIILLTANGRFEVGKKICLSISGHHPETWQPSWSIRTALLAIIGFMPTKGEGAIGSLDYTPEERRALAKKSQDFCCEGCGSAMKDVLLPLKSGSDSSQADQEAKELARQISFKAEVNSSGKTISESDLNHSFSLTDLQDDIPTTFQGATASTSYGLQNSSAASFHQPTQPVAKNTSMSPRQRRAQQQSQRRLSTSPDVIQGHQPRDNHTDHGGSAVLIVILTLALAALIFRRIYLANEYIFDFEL
UniProt P62253, sequence (whole entry, looked up): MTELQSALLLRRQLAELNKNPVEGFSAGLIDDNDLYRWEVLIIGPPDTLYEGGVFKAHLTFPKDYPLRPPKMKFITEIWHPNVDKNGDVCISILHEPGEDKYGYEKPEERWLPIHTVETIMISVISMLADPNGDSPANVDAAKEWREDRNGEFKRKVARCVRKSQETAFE
UniProt P68036, sequence (whole entry, looked up): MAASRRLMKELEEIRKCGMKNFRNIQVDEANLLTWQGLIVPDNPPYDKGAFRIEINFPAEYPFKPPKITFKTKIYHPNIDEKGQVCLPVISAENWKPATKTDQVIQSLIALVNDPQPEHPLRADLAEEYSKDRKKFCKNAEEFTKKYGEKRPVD
UniProt P63146, sequence (whole entry, looked up): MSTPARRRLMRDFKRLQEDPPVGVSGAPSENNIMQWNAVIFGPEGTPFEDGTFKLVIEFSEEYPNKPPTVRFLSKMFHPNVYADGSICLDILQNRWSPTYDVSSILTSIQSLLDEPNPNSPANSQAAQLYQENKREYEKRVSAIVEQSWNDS

Set 1
Target: Sal-like protein 4, full length isoform B (SALL4, Homo sapiens, UniProt Q9UJQ4-2, residues 1-616)
Technique: universal PBM
Molecule type: double-stranded DNA, one strand shown
Sample: in vitro
Tested at: not given
Notes: 8-mer, flanks averaged, mean of replicates
Reading: higher = stronger binding
Measurement: E-score
Construct (chain): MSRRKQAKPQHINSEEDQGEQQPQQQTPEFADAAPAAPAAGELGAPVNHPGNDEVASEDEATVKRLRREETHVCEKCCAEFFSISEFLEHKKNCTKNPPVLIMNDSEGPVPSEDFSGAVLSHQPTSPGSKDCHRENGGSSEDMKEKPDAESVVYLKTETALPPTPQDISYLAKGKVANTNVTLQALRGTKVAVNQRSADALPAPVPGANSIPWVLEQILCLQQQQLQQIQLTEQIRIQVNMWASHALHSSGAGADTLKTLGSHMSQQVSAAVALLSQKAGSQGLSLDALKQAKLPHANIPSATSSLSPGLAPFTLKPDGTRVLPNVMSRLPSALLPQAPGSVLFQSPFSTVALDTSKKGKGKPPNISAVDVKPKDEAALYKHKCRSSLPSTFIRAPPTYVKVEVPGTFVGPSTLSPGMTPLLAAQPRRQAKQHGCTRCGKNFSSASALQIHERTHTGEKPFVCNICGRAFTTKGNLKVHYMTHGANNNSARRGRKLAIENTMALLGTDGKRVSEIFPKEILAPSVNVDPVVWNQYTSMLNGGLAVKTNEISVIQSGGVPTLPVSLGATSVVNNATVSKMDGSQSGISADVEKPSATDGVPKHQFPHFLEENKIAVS
AATAAACT: 0.359
GAAAAAGC: -0.0275
GTCGATGA: -0.0639
CCGATCAC: -0.0398
CCAGGCGC: -0.323
AGTTCTCC: -0.214
CCGTATCA: 0.0369
CCGATTCA: 0.078
AGCGGACC: -0.293
ACCTTTCA: -0.00168
GCCCGGCC: -0.395
GCGAGCCA: -0.197
GTTTACCA: 0.104
ACCGCCAT: -0.106
TACGGTCA: -0.0786
TGCAGGAA: -0.0418
CATGCAGC: -0.0851
CTAACTGA: -0.0115

Set 2
Target: CCND3, cyclin fold, Cln2 fusion (human)
Technique: yeast growth competition, sequencing
Sample: yeast
Notes: weak parent motif
Reference: not given
Reading: higher = stronger binding
Measurement: normalised enrichment score
Starting sequence: E2F1 docking peptide (human); PPVKRRLDFETDH; partner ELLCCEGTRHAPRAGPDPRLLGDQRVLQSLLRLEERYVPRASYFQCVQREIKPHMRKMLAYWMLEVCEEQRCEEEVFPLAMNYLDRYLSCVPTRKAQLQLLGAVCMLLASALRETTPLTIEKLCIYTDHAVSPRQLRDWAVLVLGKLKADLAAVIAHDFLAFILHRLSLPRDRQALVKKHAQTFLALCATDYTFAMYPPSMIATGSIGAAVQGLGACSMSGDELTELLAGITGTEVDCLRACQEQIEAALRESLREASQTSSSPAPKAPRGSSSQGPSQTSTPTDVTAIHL
D8K: -0.0236
V3Y: 0.22
D12H: 0.11
D12Q: 0.0835
T11E: 0.691
P2D: 0.107
T11K: 0.265
K4D: 0.0476
V3E: -0.206
R5P: -0.34
T11S: 0.854
D12M: 0.253
F9K: -0.141
E10A: 0.274
R5M: -0.0447
K4Q: 0.421
D8L: 0.269
R6S: 0.635
K4C: 1.65
V3S: 0.293
E10Y: 0.112
T11G: 0.192
V3N: -0.209
D12S: 0.159
T11A: 0.0893

Set 3
Target: RNA binding protein fox-1 homolog 2, RRM domain, GST-SBP tag (RBFOX2, Homo sapiens, UniProt O43251-10, residues 100-194)
Technique: RNA Bind-n-Seq
Molecule type: RNA
Sample: in vitro
Tested at: 365 nM
Notes: natural RNA segment, single round, ends assumed
Reference: no-protein control
Reading: higher = stronger binding
Measurement: RBNS enrichment (R)
All sequences stand within: GGGAGUUCUACAGUCCGACGAUC … UGGAAUUCUCGGGUGCCAA
Residues (chain): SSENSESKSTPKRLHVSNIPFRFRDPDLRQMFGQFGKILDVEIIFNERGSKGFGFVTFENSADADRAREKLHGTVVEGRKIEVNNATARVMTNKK
GGGAGGCAGUCUUGUCACCUCCCAUCCAACAGUUCACAAACGGCUCAGUUCCUUCAUUCAGAUGGUUGGGUACGUGCUUGUGGCUGAGGAAGGGCGGGUGGUGUGGACAG: 0.861
GAAAGGGAACCUCAGCUCGUUAGGCAGGAAGAGUUGAUAUUUAAUAAAGAGAGAACAAUUGAACCGAAGCCCAGCAGUCCUCUUGUCAGCUCUUUCCAUCUUCAGGAGUG: 0.318
UUUUAUUUCAGUUUUUAUUAUAUAUUUAUUUGAAAUAUUUAUUAAAUUAUCUGACCUACAGAACUAAUUCUUCUCCUUUUGUUAUUUCUUAUGUCCUAUACCAUAUAUGU: 3.74
UUUGGUUCUCGAACCAUCUACCUGCUUUUCCUCUCUCUCCCAAGGCCUGACAAUGGUACCUAUUAGGGAUGAGAUACAGACAAGGAUAGCUAUCUGGGACAUUAUUGGCA: 0.62
GGGGCCAGGAUUUUCCCUGGUCAGAUGCCAAGUAACAUGUGGUUUUCUGCCAUACUUUUCUCCAUUGGCCCAGGUAGGCUAAUUGGUAGUUGUUCAUUUCAGCCUCUGGA: 0.239
UUAAGCCCAGAGAUCCUGCUUGAGCCCUGGACUCAUCUUGGGAAGGGCCAUGGGAGGUCCUGGCUAGAGUUCUGCCCAACCUUGACCAACCCCAGCAAUUUUUCCAAAAG: 0.294
UAAAGGCCAAUCAAUGCACUGUCUGUCUCUCCUUUUAGGAGUAAGCCAUCCCACAAGUUCUAUACCAUAUUUUUAGUGACAGUUGAGGUUGUAGAUACACUUUAUAACAU: 0.441
UAAUAGGAUGCAAGUCUAAGCGUUUCAUGUGGACAUAAAUGUAUCUAAAUAAAACUUCCCCUAGCACUGUGGCUGACCUCACCCUUACUUUUAUACUUUAGUAUGAAACU: 0.48
AGUCCCCAUCCGCUCAGUCAUCUUACCCUGUGACUGCUCUCAGCCCUGAAGAAUCCACAACCAUCCUUCCAAGGUUCUCCAUCCCCACAAUGACUAGCUGUUGCUCUCCA: 0.709
CCGCUCCUUGCUGCUACACGGGGUAGGAGGACAUACAAAUAAUUGCUUCUCGUUCUUAGCAGGGAUGAACAGGCACACUGAGGUGAACAUCUGGCCCAAAUGAAGCAUAC: 0.661
CCUUUCUUCACCAAGUGCAAUAGAUUUCCUCAUCUGAUAGGCUGUUGCUUUACCGUCACACGCGAUGUGCUCAGCCAAAUUCCCUACUCAAAAUAUCAUGUUAAAUUAGA: 0.536
CACUGUGGGGCAUUUCACCAUUCAAACAGGUCGAGCUGUGCUCGGGUGCUGCCAGCUGCUCCCAAUGUGCCGAUGUCCGUGGGCAGAAUGACUUUUAUUGAGCUCUUGUU: 0.618

Set 4
Molecule: STUB1 RING domain (UniProt Q9UNE7)
UniProt Q9UNE7, sequence (whole entry, looked up): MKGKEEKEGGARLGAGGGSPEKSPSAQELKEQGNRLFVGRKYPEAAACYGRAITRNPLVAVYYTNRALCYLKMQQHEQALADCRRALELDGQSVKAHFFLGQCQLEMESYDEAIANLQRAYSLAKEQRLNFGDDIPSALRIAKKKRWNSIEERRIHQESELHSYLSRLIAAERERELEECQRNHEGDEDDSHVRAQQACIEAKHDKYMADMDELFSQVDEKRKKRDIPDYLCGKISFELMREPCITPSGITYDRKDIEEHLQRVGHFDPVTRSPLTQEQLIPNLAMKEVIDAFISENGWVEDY
Technique: yeast two-hybrid
Sample: yeast
Notes: mostly zero background
Reference: not given
Reading: higher = stronger interaction
Measurement: lacZ reporter activity
UBE2R2 UBC core domain (UniProt Q712K3): 0
UBE2O UBC core domain (UniProt Q9C0C9): 0
UBE2B UBC core domain (UniProt P63146): 0
UBE2L3 UBC core domain (UniProt P68036): 0
UBE2Q1 UBC core domain (UniProt Q7Z7E8): 0
UBE2E3 UBC core domain (UniProt Q969T4): 0
UBE2J1 UBC core domain (UniProt Q9Y385): 0
UBE2C UBC core domain (UniProt O00762): 0
UBE2T UBC core domain (UniProt Q9NPD8): 0
UBE2J2 UBC core domain (UniProt Q8N2K1): 2160
UBE2S UBC core domain (UniProt Q16763): 0
UBE2D1 UBC core domain (UniProt P51668): 0
UBE2G1 UBC core domain (UniProt P62253): 0
UBE2I UBC core domain (UniProt P63279): 0
UBE2M UBC core domain (UniProt P61081): 0
UBE2Z UBC core domain (UniProt Q9H832): 3210
BIRC6 UBC core domain (UniProt Q9NR09): 0

Set 5
Target: Histone acetyltransferase KAT6A, both winged helices, GST fusion (KAT6A, Homo sapiens, UniProt Q92794, residues 1-181)
Technique: protein binding microarray
Molecule type: double-stranded DNA, one strand shown
Sample: in vitro
Tested at: not given
Notes: 8-mer, flanks averaged, mean of 2 arrays, mostly near background
Reference: not given
Reading: higher = stronger binding
Measurement: E-score
Construct (chain): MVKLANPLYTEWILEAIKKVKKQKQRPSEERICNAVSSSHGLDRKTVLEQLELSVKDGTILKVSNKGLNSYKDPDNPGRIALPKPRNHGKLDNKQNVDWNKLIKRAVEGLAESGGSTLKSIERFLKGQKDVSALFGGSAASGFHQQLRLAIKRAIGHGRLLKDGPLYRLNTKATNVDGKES
GCCCTTCC: -0.00874
CCGATTCA: -0.124
AAAGTTAA: -0.0689
TGCCCAAA: -0.0582
ATTGTGGA: -0.36
CTCCGATA: 0.084
GGTCGTAA: 0.156
ATGCCGTC: 0.32
CATGTATA: -0.141
ATACTGAT: 0.0345
AGAAGTCG: -0.021
CGACGCAA: 0.232
GGGACCCC: 0.0372
GATTACGC: 0.142
CGCGGTTA: 0.297
AGCTCCCT: -0.164

Set 6
Target: Fragile X messenger ribonucleoprotein 1, C-terminal low-complexity region (Fmr1, Mus musculus, UniProt P35922)
Technique: RNA Bind-n-Seq
Molecule type: RNA
Sample: in vitro
Tested at: 200 nM
Notes: whole 134-nt RNA, ends assumed
Together with: 150 mM LiCl
Reference: input library
Reading: higher = stronger binding
Measurement: log2 enrichment
All molecules: 7-deaza-guanosine replaces G
All sequences stand within: GGGAGUUCUACAGUCCGACGAUC … UGGAAUUCUCGGGUGUCAAGG
CUCAAGUCCUGUGCUACACAUCGUAUGUACCGAAUCGGGGAGGAGGGGAGGGGAAAGUAUUAUGUUACGCCGUUCGGAUCUGCACUUCCA: -0.61
GUCCUGUGCUACACAUCGUAUGUACCGAAUCAAACCCCCAAACCCAAAUUUUUUUAAAAAAGUAUUAUGUUACGCCGUUCGGAUCUGCAC: 1.43
ACCAUGCAGGUGGGCAUCUUUGGGAAGUGGGGCAAGGGGGGGAUAGGGAGGGGGGUAACACUUUGGGUACAGGUGGUCCCAGGUCGUUUC: 1.54
CAAGUCCUGUGCUACACAUCGUAUGUACCGAAUCGGGUUUUUGGGAAAGGGAGGGAAAGUAUUAUGUUACGCCGUUCGGAUCUGCACUUC: -0.441
UGGCCCUGGUGGCAUGCGGGGAGGAAGAGGUGGCCUCAUGGAUCGUGGUGGUCCCGGUGGAAUGUUCAGAGGUGGCCGUGGUGGUGACAG: -0.328
UAACUUUAGAGGAGGAUCUGAUGGAUAUGGCAGUGGACGUGGAUUUGGGGAUGGCUAUAAUGGGUAUGGAGGAGGGCCUGGAGGUGGCAA: 1.19
AAGUCCUGUGCUACACAUCGUAUGUACCGAAUCGGAAAAAGGAAAAAGGAAAAAGGGAAAGUAUUAUGUUACGCCGUUCGGAUCUGCACU: -0.62
CUGUGCUACACAUCGUAUGUACCGAAUCGGGGCCCCCCCGGCCCCCCCGGGGCCCCCCCGGAAAGUAUUAUGUUACGCCGUUCGGAUCUG: -0.445
UCAAGUCCUGUGCUACACAUCGUAUGUACCGAAUCGGUUUGGUUUGGGUUUGGGGAAAGUAUUAUGUUACGCCGUUCGGAUCUGCACUUC: -1.7
UCCUCAAGUCCUGUGCUACACAUCGUAUGUACCGAAUCGGCGGCGGCGGGGAAAGUAUUAUGUUACGCCGUUCGGAUCUGCACUUCCAGC: 1.25
GUCCUGUGCUACACAUCGUAUGUACCGAAUCGGGGUUUUUGGGGAAAGGGGUUUGGGGAAAGUAUUAUGUUACGCCGUUCGGAUCUGCAC: -1.08
